{"data": "Experimental data gathered from unrelated publications", "note": "Parts stem from different laboratories: compare values within a part only."}
{"data": "Series 1", "target": "Protein C-ets-1 (ETS1, Homo sapiens, UniProt P14921, residues 1-441, full length assumed)", "technique": "protein-binding microarray", "molecule type": "double-stranded DNA, one strand shown", "sample": "in vitro", "concentration": "not given", "setting": "k-mer, scored over probes, only values ≥0.25", "reading": "higher = stronger binding", "Target sequence (chain)": "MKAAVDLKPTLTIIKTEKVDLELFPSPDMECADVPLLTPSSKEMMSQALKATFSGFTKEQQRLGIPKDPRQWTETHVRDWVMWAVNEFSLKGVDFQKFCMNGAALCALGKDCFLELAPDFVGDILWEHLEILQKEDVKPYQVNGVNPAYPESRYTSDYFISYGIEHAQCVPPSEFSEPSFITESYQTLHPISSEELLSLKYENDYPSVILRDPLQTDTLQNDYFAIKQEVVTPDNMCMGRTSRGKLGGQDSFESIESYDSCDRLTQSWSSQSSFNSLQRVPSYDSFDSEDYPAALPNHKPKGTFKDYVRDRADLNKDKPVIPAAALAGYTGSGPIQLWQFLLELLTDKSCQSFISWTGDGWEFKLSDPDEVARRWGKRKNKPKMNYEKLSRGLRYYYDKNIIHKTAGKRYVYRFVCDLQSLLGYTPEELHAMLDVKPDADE"}
{"Strand": "CTTCCGTA", "E-score": 0.428}
{"Strand": "ACCACCGG", "E-score": 0.264}
{"Strand": "GGCGGGAA", "E-score": 0.387}
{"Strand": "CGTCCTGC", "E-score": 0.353}
{"Strand": "AGGACGTG", "E-score": 0.295}
{"data": "Series 2", "target": "Centromere-binding protein 1, full length, N-terminal tag (CBF1, Saccharomyces cerevisiae, UniProt P17106, residues 1-351)", "technique": "protein-binding microarray", "molecule type": "double-stranded DNA, one strand shown", "sample": "in vitro", "concentration": "0.8 µM", "setting": "whole 60-bp probe, no competitor", "reading": "higher = stronger binding", "shared flanks, not repeated": "… GTCTTGATTCGCTTGACGCTGCTG", "UniProt P17106, sequence (whole entry, looked up)": "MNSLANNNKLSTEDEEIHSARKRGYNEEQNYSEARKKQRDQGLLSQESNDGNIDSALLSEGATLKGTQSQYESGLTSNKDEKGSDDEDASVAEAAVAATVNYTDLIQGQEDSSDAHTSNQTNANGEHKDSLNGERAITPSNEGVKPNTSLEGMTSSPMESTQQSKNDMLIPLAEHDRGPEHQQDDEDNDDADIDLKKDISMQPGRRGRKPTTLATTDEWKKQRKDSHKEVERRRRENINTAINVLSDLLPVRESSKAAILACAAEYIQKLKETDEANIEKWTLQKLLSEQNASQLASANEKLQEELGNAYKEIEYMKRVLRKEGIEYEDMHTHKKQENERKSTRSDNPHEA"}
{"Strand": "GAAAGATGGGACCATCAGATGTGGAACGAAAATTAG", "fluorescence intensity": "509 a.u."}
{"Strand": "CTATTAGTAGGCCCAGGTGAGCCTGTGCCGAACTTC", "fluorescence intensity": "471 a.u."}
{"Strand": "CCTAACTACTATAATTTCACCTGATAGCTTCGTACA", "fluorescence intensity": "602 a.u."}
{"Strand": "GAAAATACTGAGTGTCACGTTAATAATACGGATTAG", "fluorescence intensity": "1010 a.u."}
{"Strand": "TGTACGAAGCTATGTGACAATGATATAGTAGTTAGG", "fluorescence intensity": "571 a.u."}
{"data": "Series 3", "target": "RING finger protein unkempt homolog, zinc fingers 1-6, SBP tag (UNK, Homo sapiens, UniProt Q9C0B0, residues 30-357)", "technique": "RNA Bind-n-Seq", "molecule type": "RNA", "sample": "in vitro", "concentration": "100 nM", "setting": "RNA with constant flanks, vertebrate orthologous sites, ends assumed", "reference": "input RNA pool", "reading": "higher = stronger binding", "UniProt Q9C0B0, sequence (30-357, looked up)": "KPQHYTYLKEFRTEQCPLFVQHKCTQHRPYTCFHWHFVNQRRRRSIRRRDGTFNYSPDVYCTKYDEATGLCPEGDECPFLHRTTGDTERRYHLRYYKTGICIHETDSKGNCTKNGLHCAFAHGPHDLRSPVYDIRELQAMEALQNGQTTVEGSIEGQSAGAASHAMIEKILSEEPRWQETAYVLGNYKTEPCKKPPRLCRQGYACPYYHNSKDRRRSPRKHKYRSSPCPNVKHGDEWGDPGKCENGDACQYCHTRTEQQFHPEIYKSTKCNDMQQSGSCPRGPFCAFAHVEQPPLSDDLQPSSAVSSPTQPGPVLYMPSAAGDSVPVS"}
{"Strand": "GGGAGUUCUACAGUCCGACGAUCUUAUACGGGCCUCGCAGAGUUGAAGUAAUUGAAGAAGAAACUUCACAAUAACUGUCAUCUUAGUGUCUCUGACUAGGUGUGGAAUAAAUUUUGUUCGUUGAUCAUUUUCAAACCCCAGAACAACAGAGGAUUGAGCAUCA", "bound/input enrichment": "0.619 ratio"}
{"Strand": "GGGAGUUCUACAGUCCGACGAUCCUACAGGAGAAGAGCUCACAACUCAGAAGGAACUAUCAAGAGUUUCUAAUGGCUGAAAGCUAGGAAAAAUUAGGACAAUUUUACAAAUGAGCCAUUAAAACAAAACAAAAAAGAUAUGGACAACAGAGGAUUGAGCAUCA", "bound/input enrichment": "1.22 ratio"}
{"Strand": "GGGAGUUCUACAGUCCGACGAUCGACCUCCUGAACGUCUAGCUUUCAAGCUGUGGCUGUUUUAGAUACUGGUUUUAUUUUCGUUACAGUUUUUCCCUGUUUCCCACCUUCUCUCCCCUUCUUCCCAAGGUCUGACUCAUGGAUCAACAGAGGAUUGAGCAUCA", "bound/input enrichment": "1.2 ratio"}
{"data": "Further values, each from its own experiment"}
{"Substance": "PhoQ, residues 284 288 289 292 302 303 SLGVVW", "target": "PhoP, residues 12 14 15 18 19 LHSVW (Escherichia coli, UniProt P23836)", "test": "Sort-seq, measured: YFP reporter", "system": "E. coli", "setting": "PhoQ-PhoP variant library, together with: 10 µM Mg2+", "how to read": "reference: high Mg2+ state, higher = stronger signaling", "measurement": "fold induction", "result": 5.45}
{"note": "Repeated from above (series 3):"}
{"Strand": "GGGAGUUCUACAGUCCGACGAUCUUAUACGGGCCUCGCAGAGUUGAAGUAAUUGAAGAAGAAACUUCACAAUAACUGUCAUCUUAGUGUCUCUGACUAGGUGUGGAAUAAAUUUUGUUCGUUGAUCAUUUUCAAACCCCAGAACAACAGAGGAUUGAGCAUCA", "bound/input enrichment": "0.619 ratio"}
